Published values collected from several papers.
Numbered parts are unrelated; each lists some results of a single study. Changes are numbered by the printed parent chain.
Sequence of UniProt Q9ZSY8 (whole entry, looked up): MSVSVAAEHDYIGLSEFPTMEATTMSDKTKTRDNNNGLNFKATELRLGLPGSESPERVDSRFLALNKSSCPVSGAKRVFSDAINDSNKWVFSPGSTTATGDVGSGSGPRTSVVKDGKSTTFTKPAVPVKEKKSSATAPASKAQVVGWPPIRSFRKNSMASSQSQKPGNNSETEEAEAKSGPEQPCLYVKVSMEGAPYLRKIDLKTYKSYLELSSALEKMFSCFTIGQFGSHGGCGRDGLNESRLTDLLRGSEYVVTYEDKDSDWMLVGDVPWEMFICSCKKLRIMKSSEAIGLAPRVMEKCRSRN
Sequence of UniProt Q9C7I9 (whole entry, looked up): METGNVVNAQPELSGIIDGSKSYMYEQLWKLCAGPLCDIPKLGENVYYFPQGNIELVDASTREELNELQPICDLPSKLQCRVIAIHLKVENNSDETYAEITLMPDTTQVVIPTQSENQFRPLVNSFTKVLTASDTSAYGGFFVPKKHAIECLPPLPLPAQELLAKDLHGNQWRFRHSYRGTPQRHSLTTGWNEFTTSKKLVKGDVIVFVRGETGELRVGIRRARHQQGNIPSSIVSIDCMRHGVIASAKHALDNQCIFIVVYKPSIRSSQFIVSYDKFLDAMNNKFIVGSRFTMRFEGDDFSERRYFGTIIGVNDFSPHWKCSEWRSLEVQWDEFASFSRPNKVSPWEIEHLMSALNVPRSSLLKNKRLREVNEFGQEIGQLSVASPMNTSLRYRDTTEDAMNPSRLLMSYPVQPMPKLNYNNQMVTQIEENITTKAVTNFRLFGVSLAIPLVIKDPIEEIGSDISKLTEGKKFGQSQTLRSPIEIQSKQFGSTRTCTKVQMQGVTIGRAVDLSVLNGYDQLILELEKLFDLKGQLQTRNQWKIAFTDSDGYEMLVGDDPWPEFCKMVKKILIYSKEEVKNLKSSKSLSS

Series 1
Target: Phosphate system positive regulatory protein PHO4, full length, GST-tagged (PHO4, Saccharomyces cerevisiae, UniProt P07270, residues 1-312)
Technique: competition protein-binding microarray
Molecule type: double-stranded DNA, one strand shown
Matrix: in vitro
Concentration: 2 µM
Setting: whole 60-bp probe, lowest competitor level
Together with: Cbf1 competitor, 0.05 µM
Reading: higher = stronger binding
Quantity: fluorescence intensity
Shared flanks, not repeated: … GTCTTGATTCGCTTGACGCTGCTG
Construct (chain): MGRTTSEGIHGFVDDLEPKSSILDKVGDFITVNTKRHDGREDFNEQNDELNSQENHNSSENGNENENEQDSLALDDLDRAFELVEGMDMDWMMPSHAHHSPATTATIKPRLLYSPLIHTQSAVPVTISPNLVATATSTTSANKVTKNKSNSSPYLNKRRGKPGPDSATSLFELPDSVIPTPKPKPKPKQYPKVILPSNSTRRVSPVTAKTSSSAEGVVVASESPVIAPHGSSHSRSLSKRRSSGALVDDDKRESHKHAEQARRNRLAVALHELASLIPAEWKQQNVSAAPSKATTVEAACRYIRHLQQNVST
AAAGCGGTAATTTTTCACGTGAGGTCAAATATCTAT: 10800 a.u.
CTTCTGTAAATTTGCCTAGTGGGTGGACGCGCCCCG: 4880 a.u.
GACAGATGTGGAGTCAGCGTGGGTAGTGGGGTAACA: 7300 a.u.
CATGGCCTCAATGGCCGCGTGTCCAGAGAGTGGACT: 7020 a.u.
CGGAAAGGGCTGGGCCACGTGGGCGGCTGCTGAGTG: 23000 a.u.
TTCAAGAAAAATCCACGCGTGTGGACCTTTTTTTTC: 7940 a.u.
AAGACAAATGGTCGGCCCGTGACGGTTGCAGGCCCA: 4980 a.u.
TAGTAATGTGCAAGTGATGTGGCGAGATGGTCCTTT: 4880 a.u.
TTGATTAATGATTCCTTTTCCTCTTCTAGTGAAGTA: 2510 a.u.
CGTCCTAGCGATTGATTGGTGGGTGCCATGAGGAAG: 7080 a.u.
TGAGGGTGAGTATGGCATGTGGTGGTGGGATTGGAG: 10100 a.u.
ATTCCTGAAGAATCCAAAGGATCTTTTAAGTATATA: 2460 a.u.
GGCTTGGATCTCAAAAGCGTGGGTAGCGTCGGCGCG: 7390 a.u.
GTTGTTATTTTTTAGGTCGTGATGGGTGTTCCTTGT: 6850 a.u.
CTTCTGTAAATTTTTCACGTGTAATGACGCGCCCCG: 12400 a.u.
ATCCAAAAGTTGAACGACATGACAAGGTAGTTCCGA: 4060 a.u.
CGGGGTTAAGTTTGGACGGTGGGTGGCTTGCAGCAG: 4340 a.u.
GCCTCCGTCTCTTCCACTGTGCAGGGCGCTAGCTCA: 2990 a.u.

Series 2
Target: Histone acetyltransferase KAT6A, winged helix 1, GST fusion (KAT6A, Homo sapiens, UniProt Q92794, residues 1-85)
Technique: protein binding microarray
Molecule type: double-stranded DNA, one strand shown
Matrix: in vitro
Concentration: not given
Setting: 8-mer, flanks averaged, mean of 2 arrays, mostly near background
Baseline: not given
Reading: higher = stronger binding
Quantity: E-score
Construct (chain): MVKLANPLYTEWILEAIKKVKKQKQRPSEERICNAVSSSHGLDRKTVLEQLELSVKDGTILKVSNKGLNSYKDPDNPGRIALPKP
GAAGATTA: 0.0727
AGCATGCG: 0.0962
CGGACGTA: 0.249
GGAATGTA: -0.0673
CCCAAGCG: 0.112
GACGTGCA: -0.134
TAGCCTCA: -0.229
GGCGAACC: 0.268
AGCAGGAA: -0.236
AAGGACTT: -0.199
ATCGACTG: -0.201
AATGAGAC: -0.164
ATCAAAAG: -0.0103
CCCGCCAA: 0.271
AACTCCCG: 0.253
GTGTGCTA: -0.0966
ACAGCAAC: -0.162
ACTCCGGC: 0.216
ACAGGCGC: 0.253
ATCGGCAA: 0.129
AGTGGGTG: -0.0538
GGTCGGAA: 0.0424
ACGGTCCT: -0.011

Series 3
Target: Sal-like protein 4, full length isoform B (SALL4, Homo sapiens, UniProt Q9UJQ4-2, residues 1-616)
Technique: universal PBM
Molecule type: double-stranded DNA, one strand shown
Matrix: in vitro
Concentration: not given
Setting: 8-mer, flanks averaged, mean of replicates
Reading: higher = stronger binding
Quantity: E-score
Residues (chain): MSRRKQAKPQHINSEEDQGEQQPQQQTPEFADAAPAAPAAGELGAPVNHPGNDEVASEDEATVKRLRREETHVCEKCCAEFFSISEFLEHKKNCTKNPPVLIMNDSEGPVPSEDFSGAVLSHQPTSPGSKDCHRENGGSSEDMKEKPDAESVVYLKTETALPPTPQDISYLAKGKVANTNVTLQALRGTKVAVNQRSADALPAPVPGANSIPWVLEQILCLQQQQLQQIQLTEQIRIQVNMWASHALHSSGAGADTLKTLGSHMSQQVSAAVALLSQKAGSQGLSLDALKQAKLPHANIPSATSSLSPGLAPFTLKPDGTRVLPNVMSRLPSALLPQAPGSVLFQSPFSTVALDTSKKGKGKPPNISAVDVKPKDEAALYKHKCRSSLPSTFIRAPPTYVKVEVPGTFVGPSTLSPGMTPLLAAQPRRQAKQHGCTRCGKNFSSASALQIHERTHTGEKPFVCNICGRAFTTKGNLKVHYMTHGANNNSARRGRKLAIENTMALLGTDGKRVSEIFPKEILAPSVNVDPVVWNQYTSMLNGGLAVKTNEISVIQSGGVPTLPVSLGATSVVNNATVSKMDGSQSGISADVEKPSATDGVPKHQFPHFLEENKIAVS
ATAGCACC: 0.168
CGCACGAC: -0.207
AAGAGCTG: -0.193
CGAGATCA: -0.0607
GGCGCGGA: -0.334
ACAAGTAG: 0.075
ACTTGTTC: 0.0966
AGGTAGGA: -0.0081
AGTTGCCA: -0.23
CCTCAGAG: -0.355
AGCCACAA: 0.0856
ACTAGGGG: -0.172
CAGCATAA: 0.228
AACAGCTG: 0.0453
AAGCATCA: 0.00978
CCCTTGAA: -0.0403
GGTATTAA: 0.177
CGACCACG: -0.285
CTAAAGAG: -0.0726

Series 4
Target: UBE2U UBC core domain (UniProt Q5VVX9)
Technique: yeast two-hybrid
Matrix: yeast
Setting: mostly zero background
Baseline: not given
Reading: higher = stronger interaction
Quantity: lacZ reporter activity
B1: MEX3B RING domain (UniProt Q6ZN04); chain SGLRRKGSRDCSVCFESEVIAALVPCGHNLFCMECANRICEKSEPECPVCHTAVTQAIRIF
B2: DEF8 RING domain (UniProt Q6ZN54); chain AGRLGCSLTEIHTLFAKHIKLDCERCQAKGFVCELCREGDVLFPFDSHTSVCADCSAVFHRDCYYDNSTTCPKCARLSLRK
B3: RLIM RING domain (UniProt Q9NVW2); chain SFGENDALKTCSVCITEYTEGNKLRKLPCSHEYHVHCIDRWLSENSTCPICRRAVLASGNRE
B4: TRIM22 RING domain (UniProt Q8IYM9); chain VKVDIEKEVTCPICLELLTEPLSLDCGHSFCQACITAKIKESVIISRGESSCPVCQTRFQPGNLRP
B5: ANAPC11 RING domain (UniProt Q9NYG5); chain GICRMAFNGCCPDCKVPGDDCPLVWGQCSHCFHMHCILKWLHAQQVQQHCPMCRQEWKFKE
B6: MKRN2 RING domain (UniProt Q9H000); chain FAFQASQDKVCSICMEVILEKASASERRFGILSNCNHTYCLSCIRQWRCAKQFENPIIKSCPECRVISEFVIPSV
B7: RNF166 RING domain (UniProt Q96A37); chain GDSGLEAQYTCPICLEVYHRPVAIGSCGHTFCGECLQPCLQVPSPLCPLCRLPFDPKKVDK
B8: TRIM37 RING domain (UniProt O94972); chain SVESIAEVFRCFICMEKLRDARLCPHCSKLCCFSCIRRWLTEQRAQCPHCRAPLQLRELVN
B9: RNF187 RING domain (UniProt Q5TA31); chain ALPAGPAEAACALCQRAPREPVRADCGHRFCRACVVRFWAEEDGPFPCPECADDCWQRAVEP
Construct (chain): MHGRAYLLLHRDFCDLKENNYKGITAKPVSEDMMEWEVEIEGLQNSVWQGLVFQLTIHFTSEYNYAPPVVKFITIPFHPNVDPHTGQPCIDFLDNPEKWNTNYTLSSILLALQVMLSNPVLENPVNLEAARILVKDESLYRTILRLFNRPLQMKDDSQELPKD
B1 (MEX3B RING domain): 0
B2 (DEF8 RING domain): 2700
B3 (RLIM RING domain): 0
B4 (TRIM22 RING domain): 13500
QVQSRTKIEECVVCSDKKAAVLFQPCGHMCACENCANLMKKCVQCRAVVERRVPFI (MIB1 RING domain (UniProt Q86YT6)): 0
B5 (ANAPC11 RING domain): 16400
B6 (MKRN2 RING domain): 0
B7 (RNF166 RING domain): 15700
LDAASGHPLVCPLCHGQYERPCLLDCFHDFCTGCLRGRATDGRLSCPLCQHQTLVKGPSG (Rnf207 RING domain (UniProt Q3V3A7)): 8840
AEADPLGRFTCPVCLEVYEKPVQVPCGHVFCSACLQECLKPKKPVCGVCRSALAPGVRAV (RNF114 RING domain (UniProt Q9Y508)): 14300
B8 (TRIM37 RING domain): 4990
KPDKMEETLTCIICQDLLHDCVSLQPCMHTFCAACYSGWMERSSLCPTCRCPVERICKNH (CHFR RING domain (UniProt Q96EP1)): 2320
B9 (RNF187 RING domain): 0

Series 5
Target: CCNA2, cyclin fold, Cln2 fusion (human)
Technique: yeast growth competition, sequencing
Matrix: yeast
Setting: strong parent motif
Baseline: not given
Reading: higher = stronger binding
Quantity: normalised enrichment score
Starting sequence: INSM1 docking peptide (human); PKAIRKLHFEDEV; partner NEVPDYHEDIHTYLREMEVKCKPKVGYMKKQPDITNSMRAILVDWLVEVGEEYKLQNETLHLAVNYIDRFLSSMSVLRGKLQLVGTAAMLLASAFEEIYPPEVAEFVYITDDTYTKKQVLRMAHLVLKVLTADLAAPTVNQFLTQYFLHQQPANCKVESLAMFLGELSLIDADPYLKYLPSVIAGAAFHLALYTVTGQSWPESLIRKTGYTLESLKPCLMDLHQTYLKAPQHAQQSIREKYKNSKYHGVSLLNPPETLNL
F9V: 0.458
A3Y: 3.31
I4D: 1.04
D11M: 4.57
R5D: 0.191
R5H: 0.411
E12P: 5.15
A3I: 3.64
F9R: -0.11
L7V: 0.855
F9C: 0.0353
K2G: 4.99
L7H: -0.141
L7D: -0.45
R5M: 1.97
D11V: 4.54
E12W: 4.48
D11N: 5.32
E12C: 5.38
D11H: 4.86
L7P: 0.366
F9G: 0.061
E12N: 4.87
A3G: 2.73
K2T: 4.93

Series 6
Target: ABI1, truncated, D143A, DHFR fusion (Arabidopsis thaliana)
Technique: DHFR PCA, deep sequencing
Matrix: yeast
Setting: methotrexate growth selection, single substitutions
Together with: (+)-ABA 4.8 µM
Baseline: wild-type fitted maximum
Reading: higher = stronger binding
Quantity: relative binding score
Starting sequence: PYL1, truncated, DHFR fusion (Arabidopsis thaliana); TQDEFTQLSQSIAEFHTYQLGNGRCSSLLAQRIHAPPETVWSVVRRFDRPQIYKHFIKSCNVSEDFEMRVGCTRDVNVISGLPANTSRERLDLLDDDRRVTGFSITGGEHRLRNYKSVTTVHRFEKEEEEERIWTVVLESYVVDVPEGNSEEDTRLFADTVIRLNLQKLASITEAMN
T154I: 24.1%
N85T: 90%
S104P: -8.42%
G21M: 67.8%
E38W: 35.7%
E131F: 59.7%
Y141T: -5.71%
Q2D: 79.9%
F103D: -5.57%
S59E: 75.2%
R74K: -13.4%
N177M: 87.8%
S11W: 69.4%
E4W: 66.4%
G148M: 19.1%
E139K: 7.53%

Mixed results
IAA27 (Arabidopsis thaliana, UniProt Q9ZSY8)
positive tests (ARF20 484-590 (Arabidopsis thaliana, UniProt Q9C7I9); two-hybrid; baseline: out of 4 tests, higher = firmer interaction): 1

For quick reference, copied from above (series 4):
B9 (RNF187 RING domain): 0
AEADPLGRFTCPVCLEVYEKPVQVPCGHVFCSACLQECLKPKKPVCGVCRSALAPGVRAV (RNF114 RING domain (UniProt Q9Y508)): 14300
B5 (ANAPC11 RING domain): 16400
LDAASGHPLVCPLCHGQYERPCLLDCFHDFCTGCLRGRATDGRLSCPLCQHQTLVKGPSG (Rnf207 RING domain (UniProt Q3V3A7)): 8840
B1 (MEX3B RING domain): 0
KPDKMEETLTCIICQDLLHDCVSLQPCMHTFCAACYSGWMERSSLCPTCRCPVERICKNH (CHFR RING domain (UniProt Q96EP1)): 2320
B2 (DEF8 RING domain): 2700
B3 (RLIM RING domain): 0
B4 (TRIM22 RING domain): 13500
B6 (MKRN2 RING domain): 0
B8 (TRIM37 RING domain): 4990
B7 (RNF166 RING domain): 15700
